# Experimental data gathered from unrelated publications.
# Protocols differ between the studies behind these lines. ± marks the error that the study gave.
# sdiA: Regulatory protein SdiA (sdiA, Escherichia coli, UniProt P07026)
# Chain of UniProt P07026 (whole entry, looked up): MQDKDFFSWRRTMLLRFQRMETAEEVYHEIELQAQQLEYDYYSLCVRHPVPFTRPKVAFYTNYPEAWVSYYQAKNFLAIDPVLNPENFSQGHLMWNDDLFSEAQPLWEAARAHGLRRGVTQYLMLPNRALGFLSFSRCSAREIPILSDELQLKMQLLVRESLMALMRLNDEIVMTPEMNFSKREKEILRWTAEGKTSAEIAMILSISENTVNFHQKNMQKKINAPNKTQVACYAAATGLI
# Histidine kinase AgrC: Histidine kinase AgrC (Listeria monocytogenes, UniProt A8E0G3)
# Chain of UniProt Q03431 (whole entry, looked up): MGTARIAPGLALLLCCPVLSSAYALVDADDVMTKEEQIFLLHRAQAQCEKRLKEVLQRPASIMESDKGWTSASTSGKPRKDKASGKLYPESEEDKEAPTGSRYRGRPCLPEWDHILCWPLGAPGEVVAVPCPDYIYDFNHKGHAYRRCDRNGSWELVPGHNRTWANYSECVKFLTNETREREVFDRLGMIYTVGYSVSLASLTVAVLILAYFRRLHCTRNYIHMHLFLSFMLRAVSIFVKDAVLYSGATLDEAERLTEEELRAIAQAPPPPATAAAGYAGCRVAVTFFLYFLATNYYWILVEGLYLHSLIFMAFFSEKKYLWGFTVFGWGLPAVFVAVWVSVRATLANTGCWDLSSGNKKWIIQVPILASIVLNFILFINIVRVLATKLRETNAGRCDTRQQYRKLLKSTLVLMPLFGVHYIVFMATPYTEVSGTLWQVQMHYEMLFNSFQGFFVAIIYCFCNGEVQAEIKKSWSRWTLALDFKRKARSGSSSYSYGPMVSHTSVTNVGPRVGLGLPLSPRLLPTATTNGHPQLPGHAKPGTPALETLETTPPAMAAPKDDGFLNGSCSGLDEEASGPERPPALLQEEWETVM
# Chain of UniProt P35372 (whole entry, looked up): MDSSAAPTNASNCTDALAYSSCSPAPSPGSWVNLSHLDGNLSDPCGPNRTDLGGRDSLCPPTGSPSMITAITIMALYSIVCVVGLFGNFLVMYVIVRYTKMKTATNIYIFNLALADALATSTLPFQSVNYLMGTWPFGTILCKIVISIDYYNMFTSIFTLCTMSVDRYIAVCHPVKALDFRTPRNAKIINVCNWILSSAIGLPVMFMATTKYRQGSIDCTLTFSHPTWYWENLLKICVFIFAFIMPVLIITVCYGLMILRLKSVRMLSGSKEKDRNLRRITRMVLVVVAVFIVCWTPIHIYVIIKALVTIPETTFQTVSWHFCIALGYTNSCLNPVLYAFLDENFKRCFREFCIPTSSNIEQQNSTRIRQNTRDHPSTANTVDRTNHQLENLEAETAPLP
# Chain of UniProt P37288 (whole entry, looked up): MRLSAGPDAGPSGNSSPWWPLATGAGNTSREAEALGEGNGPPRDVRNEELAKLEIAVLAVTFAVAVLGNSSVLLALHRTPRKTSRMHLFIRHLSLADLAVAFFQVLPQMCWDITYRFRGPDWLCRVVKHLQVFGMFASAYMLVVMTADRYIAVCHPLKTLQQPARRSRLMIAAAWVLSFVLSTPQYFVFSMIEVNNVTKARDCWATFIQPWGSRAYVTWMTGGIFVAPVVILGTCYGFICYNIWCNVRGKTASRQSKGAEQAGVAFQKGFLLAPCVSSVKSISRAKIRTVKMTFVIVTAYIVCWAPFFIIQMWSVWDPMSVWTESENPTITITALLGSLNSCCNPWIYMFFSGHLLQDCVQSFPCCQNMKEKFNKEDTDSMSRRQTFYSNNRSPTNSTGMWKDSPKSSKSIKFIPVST
# Chain of UniProt P21554 (whole entry, looked up): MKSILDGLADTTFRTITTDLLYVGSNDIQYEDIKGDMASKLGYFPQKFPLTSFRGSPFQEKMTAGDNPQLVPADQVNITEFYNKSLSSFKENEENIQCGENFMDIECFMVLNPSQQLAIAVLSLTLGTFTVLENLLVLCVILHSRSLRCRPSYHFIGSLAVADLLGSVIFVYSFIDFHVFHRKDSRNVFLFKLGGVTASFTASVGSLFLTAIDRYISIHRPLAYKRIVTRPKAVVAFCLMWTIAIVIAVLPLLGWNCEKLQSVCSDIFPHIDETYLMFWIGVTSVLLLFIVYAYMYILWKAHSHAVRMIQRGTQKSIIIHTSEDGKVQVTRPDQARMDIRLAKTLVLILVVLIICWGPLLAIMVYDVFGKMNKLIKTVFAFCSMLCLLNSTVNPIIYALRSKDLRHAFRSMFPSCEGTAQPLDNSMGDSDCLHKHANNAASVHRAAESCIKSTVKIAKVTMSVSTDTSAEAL
Compound,target,test,system,conditions,EC50
O=C(Cc1ccc(Cl)cc1)N[C@H]1CCOC1=O,sdiA,,,,3.56 nM
CCCCCCCCCC(=O)CC(=O)NC1CCCCC1=O (stereo not drawn),"Transcriptional activator protein LasR (lasR, Pseudomonas aeruginosa, UniProt P25084)","reporter gene, agonist",ΔmexAB-oprM pump mutant,,> 200000 nM
CSCC[C@@H]1NC(=O)[C@H](Cc2ccccc2)NC(=O)[C@@H](NC(=O)[C@@H](N)C(C)C)CSC(=O)[C@H](C(C)C)NC(=O)[C@H](Cc2ccccc2)NC1=O,Histidine kinase AgrC,,,,7.67 nM
CCCCCC(=O)CC(=O)NC1CCSC1=O (stereo not drawn),sdiA,,,,4.78 nM
CSCC[C@H]1NC(=O)[C@H](Cc2ccccc2)NC(=O)[C@H](NC(=O)[C@H](C)N)CSC(=O)[C@H](C(C)C)NC(=O)[C@H](Cc2ccccc2)NC1=O,Histidine kinase AgrC,,,,24.1 nM
CCCC[C@H](NC(=O)[C@H](CC(C)C)NC(=O)[C@H](CCC(N)=O)NC(=O)[C@@H](NC(=O)[C@H](CCC(=O)O)NC(=O)C(C)(C)NC(=O)[C@@H](NC(=O)C1(N)CCCC1)C(C)C)[C@@H](C)CC)C(=O)N[C@@H](Cc1c[nH]cn1)C(=O)N[C@@H](CCC(N)=O)C(=O)N[C@@H](CCCCNC(=O)[C@H](CCCNC(=N)N)NC(=O)CCCCCCCCCCCCCCCCC(=O)O)C(N)=O,"Parathyroid hormone/parathyroid hormone-related peptide receptor (PTH1R, Homo sapiens, UniProt Q03431)","cAMP, agonist, GloSensor",GP-2.3,120 min after washout,166 nM
CC[C@H](C)[C@@H]1NC(=O)[C@H](Cc2ccc(O)cc2)NC(=O)[C@@H](N)CSSC[C@H](N)C(=O)N[C@@H](Cc2ccc(O)cc2)C(=O)N[C@@H]([C@@H](C)CC)C(=O)N[C@@H](CCC(N)=O)C(=O)N[C@@H](CC(N)=O)C(=O)N[C@H](C(=O)N2CCC[C@H]2C(=O)N[C@@H](CC(C)C)C(=O)NCC(N)=O)CSSC[C@@H](C(=O)N2CCC[C@H]2C(=O)N[C@@H](CC(C)C)C(=O)NCC(N)=O)NC(=O)[C@H](CC(N)=O)NC(=O)[C@H](CCC(N)=O)NC1=O,"Vasopressin V1a receptor (AVPR1A, Homo sapiens, UniProt P37288)","calcium signal, agonist, fluorescence",,,> 10000 nM
CSCC[C@@H]1NC(=O)[C@H](Cc2ccccc2)NC(=O)[C@@H](NC(=O)[C@H](C)N)CSC(=O)[C@H](C)NC(=O)[C@H](Cc2ccccc2)NC1=O,Histidine kinase AgrC,,,,241 nM
CSCC[C@H](NC(=O)[C@@H]1CCCN1C(=O)CNC(=O)[C@H](CCCCN)NC(=O)[C@H](Cc1cnc[nH]1)NC(=O)[C@H](CO)NC(=O)[C@H](CC(C)C)NC(=O)[C@H](CCCNC(=N)N)NC(=O)[C@@H]1CCCN1C(=O)[C@H](CCCNC(=N)N)NC(=O)[C@@H]1CCC(=O)N1)C(=O)N1CCC[C@H]1C(=O)N[C@@H](Cc1ccccc1)C(=O)O,"Apelin receptor (Canis lupus familiaris, UniProt A0A8C0JGC4)","cAMP inhibition, agonist",HEK293,dog receptor,0.06 ± 0.03 nM
COC(=O)[C@@H](NC(=O)c1nn(Cc2ccc(F)cc2)c2cc(OCCCCNC(=N)N)ccc12)C(C)(C)C,"Cannabinoid receptor 1 (CNR1, Homo sapiens, UniProt P21554)","G-protein signalling, agonist, cAMP","HEK293T cells, transfected",,2.17 nM
CN(C)[C@H](CNC(=O)/C=C/c1cccc2ccccc12)Cc1ccc(O)cc1,"Mu-type opioid receptor, with Gi2 (OPRM1, Homo sapiens, UniProt P35372)","receptor activation, agonist",,,10 ± 1 nM
CCCCCCCCCCCCCC(=O)CC(=O)N[C@H]1CCOC1=O,sdiA,,,,191 nM

# For quick reference, copied from above:
Compound,target,test,system,conditions,EC50
CCCC[C@H](NC(=O)[C@H](CC(C)C)NC(=O)[C@H](CCC(N)=O)NC(=O)[C@@H](NC(=O)[C@H](CCC(=O)O)NC(=O)C(C)(C)NC(=O)[C@@H](NC(=O)C1(N)CCCC1)C(C)C)[C@@H](C)CC)C(=O)N[C@@H](Cc1c[nH]cn1)C(=O)N[C@@H](CCC(N)=O)C(=O)N[C@@H](CCCCNC(=O)[C@H](CCCNC(=N)N)NC(=O)CCCCCCCCCCCCCCCCC(=O)O)C(N)=O,"Parathyroid hormone/parathyroid hormone-related peptide receptor (PTH1R, Homo sapiens, UniProt Q03431)","cAMP, agonist, GloSensor",GP-2.3,120 min after washout,166 nM
CC[C@H](C)[C@@H]1NC(=O)[C@H](Cc2ccc(O)cc2)NC(=O)[C@@H](N)CSSC[C@H](N)C(=O)N[C@@H](Cc2ccc(O)cc2)C(=O)N[C@@H]([C@@H](C)CC)C(=O)N[C@@H](CCC(N)=O)C(=O)N[C@@H](CC(N)=O)C(=O)N[C@H](C(=O)N2CCC[C@H]2C(=O)N[C@@H](CC(C)C)C(=O)NCC(N)=O)CSSC[C@@H](C(=O)N2CCC[C@H]2C(=O)N[C@@H](CC(C)C)C(=O)NCC(N)=O)NC(=O)[C@H](CC(N)=O)NC(=O)[C@H](CCC(N)=O)NC1=O,"Vasopressin V1a receptor (AVPR1A, Homo sapiens, UniProt P37288)","calcium signal, agonist, fluorescence",,,> 10000 nM
